Experimental data pooled from the literature.
± gives the spread as reported.

Protein sequences, listed by entry. Tags and fused reporters are not part of them. Lines headed by an entry give the natural chain unless they say otherwise; changes in a name come on top. Residues count along the entry.
UniProt P28300, whole entry, looked up: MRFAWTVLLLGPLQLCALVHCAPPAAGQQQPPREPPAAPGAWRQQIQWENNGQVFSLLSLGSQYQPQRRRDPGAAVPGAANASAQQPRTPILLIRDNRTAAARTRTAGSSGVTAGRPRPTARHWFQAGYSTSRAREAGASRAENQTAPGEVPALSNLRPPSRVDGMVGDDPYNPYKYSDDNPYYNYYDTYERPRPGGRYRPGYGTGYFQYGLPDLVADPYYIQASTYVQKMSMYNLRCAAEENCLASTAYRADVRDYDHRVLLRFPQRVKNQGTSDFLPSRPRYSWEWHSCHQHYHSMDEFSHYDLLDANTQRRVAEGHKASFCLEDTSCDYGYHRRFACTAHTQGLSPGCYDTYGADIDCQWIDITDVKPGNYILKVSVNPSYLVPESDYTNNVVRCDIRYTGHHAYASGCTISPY
UniProt P45983, 1-384 isoform 3: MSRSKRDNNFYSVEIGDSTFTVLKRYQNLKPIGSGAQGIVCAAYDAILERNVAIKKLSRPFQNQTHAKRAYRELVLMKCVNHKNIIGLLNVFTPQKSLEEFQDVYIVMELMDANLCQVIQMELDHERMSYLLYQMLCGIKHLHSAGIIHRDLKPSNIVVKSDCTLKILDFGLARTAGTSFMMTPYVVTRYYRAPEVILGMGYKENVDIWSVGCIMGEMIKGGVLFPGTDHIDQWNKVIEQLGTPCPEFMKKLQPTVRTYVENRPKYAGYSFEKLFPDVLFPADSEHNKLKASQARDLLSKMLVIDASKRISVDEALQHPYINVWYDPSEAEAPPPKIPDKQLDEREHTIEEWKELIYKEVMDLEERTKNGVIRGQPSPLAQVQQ
UniProt O00311, whole entry: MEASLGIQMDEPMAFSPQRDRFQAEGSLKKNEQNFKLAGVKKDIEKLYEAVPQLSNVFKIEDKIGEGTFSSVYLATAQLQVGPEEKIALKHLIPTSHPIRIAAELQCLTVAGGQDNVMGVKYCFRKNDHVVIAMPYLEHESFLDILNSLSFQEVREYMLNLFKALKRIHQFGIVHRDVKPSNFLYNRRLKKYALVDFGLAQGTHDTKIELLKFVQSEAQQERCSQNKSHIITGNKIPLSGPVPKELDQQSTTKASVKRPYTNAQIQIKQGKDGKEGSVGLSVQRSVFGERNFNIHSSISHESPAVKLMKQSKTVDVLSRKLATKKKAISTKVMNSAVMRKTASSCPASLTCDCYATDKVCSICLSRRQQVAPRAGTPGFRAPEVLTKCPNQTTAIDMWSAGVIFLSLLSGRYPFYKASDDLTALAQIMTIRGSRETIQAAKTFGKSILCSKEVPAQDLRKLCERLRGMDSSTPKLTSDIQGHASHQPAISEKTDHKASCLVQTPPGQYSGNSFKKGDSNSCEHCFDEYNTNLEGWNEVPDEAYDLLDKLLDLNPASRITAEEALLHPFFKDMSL
UniProt P05067, 672-713 limits assumed: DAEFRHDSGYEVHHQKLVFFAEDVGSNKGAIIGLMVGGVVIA
UniProt P05067, whole entry, looked up: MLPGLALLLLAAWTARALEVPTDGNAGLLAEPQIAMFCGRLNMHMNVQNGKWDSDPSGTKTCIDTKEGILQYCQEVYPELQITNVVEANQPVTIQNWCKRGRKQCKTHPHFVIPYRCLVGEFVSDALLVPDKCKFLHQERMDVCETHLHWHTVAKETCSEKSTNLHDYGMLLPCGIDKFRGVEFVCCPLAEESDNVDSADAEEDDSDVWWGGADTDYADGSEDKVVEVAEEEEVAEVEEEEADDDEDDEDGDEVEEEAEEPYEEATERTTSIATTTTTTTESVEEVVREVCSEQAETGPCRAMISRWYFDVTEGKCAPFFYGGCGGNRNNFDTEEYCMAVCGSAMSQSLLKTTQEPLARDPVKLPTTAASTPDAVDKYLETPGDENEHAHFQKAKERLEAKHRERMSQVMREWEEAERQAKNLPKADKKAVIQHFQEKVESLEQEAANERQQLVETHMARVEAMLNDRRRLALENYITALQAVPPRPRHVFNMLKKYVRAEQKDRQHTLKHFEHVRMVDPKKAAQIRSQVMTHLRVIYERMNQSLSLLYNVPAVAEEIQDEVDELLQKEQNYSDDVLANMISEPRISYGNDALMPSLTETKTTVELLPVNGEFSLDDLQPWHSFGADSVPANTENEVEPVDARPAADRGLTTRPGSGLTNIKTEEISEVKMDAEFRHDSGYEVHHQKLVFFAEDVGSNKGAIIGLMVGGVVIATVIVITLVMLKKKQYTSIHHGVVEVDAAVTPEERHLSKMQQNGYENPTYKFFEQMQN
UniProt Q9UBN7, whole entry: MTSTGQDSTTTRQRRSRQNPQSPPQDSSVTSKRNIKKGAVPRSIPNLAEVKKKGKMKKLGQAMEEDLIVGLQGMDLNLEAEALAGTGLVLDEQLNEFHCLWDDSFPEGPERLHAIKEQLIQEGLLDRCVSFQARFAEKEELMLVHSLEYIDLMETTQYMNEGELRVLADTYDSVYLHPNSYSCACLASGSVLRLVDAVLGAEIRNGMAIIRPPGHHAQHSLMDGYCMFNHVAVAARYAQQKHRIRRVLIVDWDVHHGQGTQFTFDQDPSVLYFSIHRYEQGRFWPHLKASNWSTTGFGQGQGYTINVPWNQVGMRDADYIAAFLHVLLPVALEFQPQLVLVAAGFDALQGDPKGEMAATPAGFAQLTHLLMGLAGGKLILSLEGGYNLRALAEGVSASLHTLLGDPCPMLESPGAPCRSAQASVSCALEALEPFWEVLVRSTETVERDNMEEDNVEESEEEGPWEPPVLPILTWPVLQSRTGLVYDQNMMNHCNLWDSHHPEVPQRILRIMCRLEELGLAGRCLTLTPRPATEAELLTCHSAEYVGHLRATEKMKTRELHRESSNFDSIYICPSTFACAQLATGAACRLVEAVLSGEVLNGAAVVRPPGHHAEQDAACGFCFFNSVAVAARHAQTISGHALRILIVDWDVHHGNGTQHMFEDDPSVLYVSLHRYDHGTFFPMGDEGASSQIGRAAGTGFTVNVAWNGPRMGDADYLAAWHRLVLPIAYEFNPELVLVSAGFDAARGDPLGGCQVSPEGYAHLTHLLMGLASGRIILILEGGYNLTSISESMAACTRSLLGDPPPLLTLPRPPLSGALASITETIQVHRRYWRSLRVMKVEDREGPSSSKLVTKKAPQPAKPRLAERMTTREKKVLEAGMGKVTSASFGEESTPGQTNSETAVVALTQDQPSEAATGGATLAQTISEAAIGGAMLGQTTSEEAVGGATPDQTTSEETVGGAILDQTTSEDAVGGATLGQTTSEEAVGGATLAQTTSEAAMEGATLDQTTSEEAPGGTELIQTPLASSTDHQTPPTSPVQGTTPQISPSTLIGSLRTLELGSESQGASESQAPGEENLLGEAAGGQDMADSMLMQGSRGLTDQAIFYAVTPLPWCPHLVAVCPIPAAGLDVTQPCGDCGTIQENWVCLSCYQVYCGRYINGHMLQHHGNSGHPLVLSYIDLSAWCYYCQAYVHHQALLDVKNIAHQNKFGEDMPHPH
UniProt O60928, whole entry M125R: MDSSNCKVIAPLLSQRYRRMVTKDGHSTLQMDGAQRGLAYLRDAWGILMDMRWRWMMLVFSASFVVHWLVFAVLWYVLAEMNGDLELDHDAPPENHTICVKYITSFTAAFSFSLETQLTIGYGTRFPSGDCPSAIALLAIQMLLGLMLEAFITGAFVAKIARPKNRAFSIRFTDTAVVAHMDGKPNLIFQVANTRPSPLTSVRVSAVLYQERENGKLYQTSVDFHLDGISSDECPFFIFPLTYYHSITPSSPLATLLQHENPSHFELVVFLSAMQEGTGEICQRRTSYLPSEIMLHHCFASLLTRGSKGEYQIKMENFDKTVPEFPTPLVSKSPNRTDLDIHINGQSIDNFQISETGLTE
UniProt P54764, 29-209 limits assumed: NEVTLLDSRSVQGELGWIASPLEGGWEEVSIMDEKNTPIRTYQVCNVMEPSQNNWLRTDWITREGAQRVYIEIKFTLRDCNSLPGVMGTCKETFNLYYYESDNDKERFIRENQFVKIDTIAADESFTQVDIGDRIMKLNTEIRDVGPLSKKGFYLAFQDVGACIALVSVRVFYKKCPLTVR
UniProt Q9NZQ7, 19-238 limits assumed: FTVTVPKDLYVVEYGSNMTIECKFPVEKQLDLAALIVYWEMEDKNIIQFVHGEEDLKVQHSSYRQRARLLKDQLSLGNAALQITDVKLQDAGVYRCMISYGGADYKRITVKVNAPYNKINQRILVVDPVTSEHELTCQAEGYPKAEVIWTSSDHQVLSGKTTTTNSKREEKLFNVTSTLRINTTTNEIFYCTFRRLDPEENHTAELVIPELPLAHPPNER
UniProt P03372, whole entry: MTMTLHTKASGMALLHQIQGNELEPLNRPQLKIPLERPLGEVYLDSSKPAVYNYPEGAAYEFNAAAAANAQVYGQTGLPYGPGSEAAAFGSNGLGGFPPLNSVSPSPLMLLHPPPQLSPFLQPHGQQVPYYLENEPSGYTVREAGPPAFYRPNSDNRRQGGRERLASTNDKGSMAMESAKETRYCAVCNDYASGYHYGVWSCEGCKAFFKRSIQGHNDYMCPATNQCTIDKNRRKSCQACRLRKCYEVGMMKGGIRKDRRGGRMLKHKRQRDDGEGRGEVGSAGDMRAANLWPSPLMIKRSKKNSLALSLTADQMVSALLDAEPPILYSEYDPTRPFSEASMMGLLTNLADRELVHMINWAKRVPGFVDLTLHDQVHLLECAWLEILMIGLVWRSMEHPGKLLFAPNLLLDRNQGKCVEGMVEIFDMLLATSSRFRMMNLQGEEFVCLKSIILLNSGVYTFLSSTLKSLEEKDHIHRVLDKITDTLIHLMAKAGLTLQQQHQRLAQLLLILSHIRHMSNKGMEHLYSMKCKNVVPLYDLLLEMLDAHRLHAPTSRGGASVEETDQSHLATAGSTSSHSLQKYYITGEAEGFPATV
UniProt Q9NV35, whole entry: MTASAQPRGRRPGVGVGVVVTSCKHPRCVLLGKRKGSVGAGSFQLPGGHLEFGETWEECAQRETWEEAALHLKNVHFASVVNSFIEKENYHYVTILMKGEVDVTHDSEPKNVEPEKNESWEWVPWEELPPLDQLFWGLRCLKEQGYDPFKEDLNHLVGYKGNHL
UniProt P07949, whole entry, looked up, stated change not applied: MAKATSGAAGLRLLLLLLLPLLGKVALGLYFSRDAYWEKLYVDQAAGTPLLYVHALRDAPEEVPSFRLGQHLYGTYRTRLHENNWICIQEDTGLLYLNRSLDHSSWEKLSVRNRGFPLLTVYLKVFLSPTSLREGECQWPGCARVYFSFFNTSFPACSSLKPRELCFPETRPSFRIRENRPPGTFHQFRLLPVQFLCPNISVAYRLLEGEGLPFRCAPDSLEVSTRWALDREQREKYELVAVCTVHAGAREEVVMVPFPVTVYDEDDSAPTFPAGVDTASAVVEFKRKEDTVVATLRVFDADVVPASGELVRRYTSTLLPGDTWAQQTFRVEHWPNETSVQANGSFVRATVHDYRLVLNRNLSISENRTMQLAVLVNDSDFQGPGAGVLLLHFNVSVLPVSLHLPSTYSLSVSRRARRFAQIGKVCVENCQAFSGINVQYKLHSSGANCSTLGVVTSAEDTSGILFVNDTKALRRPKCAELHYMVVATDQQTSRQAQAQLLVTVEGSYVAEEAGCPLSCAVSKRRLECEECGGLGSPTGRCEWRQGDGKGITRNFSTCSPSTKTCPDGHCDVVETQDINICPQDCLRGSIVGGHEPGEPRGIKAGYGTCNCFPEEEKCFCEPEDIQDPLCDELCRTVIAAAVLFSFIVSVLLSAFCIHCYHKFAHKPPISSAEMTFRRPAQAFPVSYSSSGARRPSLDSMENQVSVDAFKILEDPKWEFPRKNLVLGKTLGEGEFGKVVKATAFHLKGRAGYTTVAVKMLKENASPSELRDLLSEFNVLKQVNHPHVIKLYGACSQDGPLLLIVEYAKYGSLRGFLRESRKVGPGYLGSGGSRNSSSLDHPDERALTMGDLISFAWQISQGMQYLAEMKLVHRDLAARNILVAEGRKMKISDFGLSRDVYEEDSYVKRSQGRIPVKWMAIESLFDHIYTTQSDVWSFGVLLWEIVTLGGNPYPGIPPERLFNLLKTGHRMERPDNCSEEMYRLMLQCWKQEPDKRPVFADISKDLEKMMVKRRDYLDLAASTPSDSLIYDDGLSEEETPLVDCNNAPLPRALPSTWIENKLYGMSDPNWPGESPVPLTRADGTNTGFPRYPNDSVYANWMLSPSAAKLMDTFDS
UniProt P28482, whole entry: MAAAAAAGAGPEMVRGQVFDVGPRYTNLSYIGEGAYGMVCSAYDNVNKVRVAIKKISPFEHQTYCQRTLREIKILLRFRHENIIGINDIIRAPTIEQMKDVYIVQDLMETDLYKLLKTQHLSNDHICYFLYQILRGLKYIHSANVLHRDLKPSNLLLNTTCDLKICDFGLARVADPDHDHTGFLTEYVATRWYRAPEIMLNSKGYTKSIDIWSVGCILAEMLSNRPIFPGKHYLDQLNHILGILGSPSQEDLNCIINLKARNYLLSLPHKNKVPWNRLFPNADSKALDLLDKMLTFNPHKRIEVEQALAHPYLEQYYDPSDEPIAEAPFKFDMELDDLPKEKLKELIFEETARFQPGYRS

SMILES | tested on | assay | system | conditions | how to read | quantity | value
Cc1nc(N)sc1-c1csc(Nc2cccc(O)c2)n1 | Protein-lysine 6-oxidase (Homo sapiens, UniProt P28300) | LOX activity, inhibitor | MDA-MB-231 | – | – | IC50 | > 10000 nM
COC(=O)[C@@]1(C)C=C(C(=O)Nc2cccc(C(=O)NC34CC(Nc5nccc(-c6cccnc6)n5)(C3)C4)c2)C(=O)CC1 | MAPK8 (Homo sapiens, UniProt P45983) | kinase activity, inhibitor | – | 2.788e-05 µM, unit not given, with: 10 mM GSH | baseline: DMSO | remaining activity | 1.02
CN[C@H](c1nc2cc(-c3ccnc(F)c3)sc2c(=O)[nH]1)C(C)C | CDC7 (Homo sapiens, UniProt O00311) | enzyme activity, inhibitor | – | – | – | IC50 | 6560 ± 229 nM
CC(=O)Nc1cc(Nc2cc(NC3CC3)n3ncc(C#N)c3n2)ccc1N(C)Cc1ccccc1 | CSNK2A1 (Homo sapiens, UniProt P68400) | inhibitor | – | – | – | IC50 | 91 nM
Nc1cc(-c2ccc(C3(c4ccc(Cl)cc4)CCNCC3)cc2)ccn1 | AKT1 (Homo sapiens, UniProt P31749) | kinase activity, inhibitor, radiometric HotSpot | – | with: ATP 10 µM | – | IC50 | 38 nM
CCOC(=O)C(C(=O)/C=C/c1ccc(O)c(OC(F)(F)F)c1)C(=O)/C=C/c1ccc(O)c(OC(F)(F)F)c1 | Amyloid-beta precursor protein, Aβ aggregates (APP, Homo sapiens, UniProt P05067) | binding, thioflavin T competition | – | – | – | IC50 | 130 nM
O=C(NO)c1cc(F)cc(F)c1 | HDAC6 (Homo sapiens, UniProt Q9UBN7) | enzyme activity, inhibitor, electrophoretic mobility shift | – | with: FAM-RHKK(Ac)-NH2 1 µM | – | IC50 | 121 nM
COc1ccc2nc3ccc(OC)cc3c(CCCCN)c2c1 | DYRK2 (Homo sapiens, UniProt Q92630) | inhibitor | – | inactive at 20 µM, with: Woodtide peptide substrate | – | IC50 | 240 nM
O=C(NC1CCN(Cc2cc(Cl)c3cccnc3c2O)CC1)c1cccc(Cl)c1 | KCNJ13 (Homo sapiens, UniProt O60928, M125R) | potassium current, inhibitor, whole-cell patch clamp | – | holding potential -120 mV | – | IC50 | 860 nM
COC(=O)[C@@H]1C(c2nc3ccccc3o2)=Cc2cc3c(cc2[C@H]1c1cc(OC)c(OC)c(OC)c1)OCO3 | Leishmania infantum | iRFP fluorescence | mouse splenocytes infected, amastigote, iRFP, ex vivo splenic explant | 48 h | – | EC50 | 4500 ± 100 nM
NCCC(=O)N[C@@H](Cc1c[nH]c2ccc(O)cc12)C(=O)N[C@@H](Cc1ccc(Cl)cc1)C(=O)N[C@@H](Cc1ccncc1)C(=O)N[C@H](Cc1c[nH]c2ccccc12)C(N)=O | EPHA4 (Homo sapiens, UniProt P54764) | binding, fluorescence polarization | – | with: FITC-KYL peptide 5 µM | – | IC50 | 3770 ± 500 nM
Cc1c(-c2ccc3c(c2)OCCO3)cccc1N1C(=O)c2cc(CNC3CCOCC3)c(OCc3cccc(C#N)c3)cc2C1=O | Programmed cell death 1 ligand 1, with PD-1 (CD274, Homo sapiens, UniProt Q9NZQ7) | PD-1/PD-L1 binding, inhibitor, TR-FRET | – | – | – | IC50 | 50.4 nM
COc1ccc(SCC(=O)Nc2ccc3nc(SCC(=O)NC4CC4)sc3c2)cc1 | Estrogen receptor (ESR1, Homo sapiens, UniProt P03372) | reporter gene, antagonist | HEC-1 transfected ERα luciferase reporter | – | – | IC50 | 20000 to 50000 nM
O=c1[nH]c2ccc(S(=O)(=O)N3CCN(Cc4ccc5[nH]ccc5c4)CC3)cc2o1 | NUDT15 (Homo sapiens, UniProt Q9NV35) | enzyme activity, inhibitor, malachite green | – | with: dGTP | – | IC50 | 219 nM
COc1ccc(-n2nc(C(F)(F)F)nc2-c2ccc(OC)nc2)cc1 | PTGS2 (Homo sapiens, UniProt P35354) | PGE2 production, inhibitor, enzyme immunoassay | human whole blood | – | – | IC50 | 776 ± 71 nM
CCOC(=O)COC(=O)[C@@H]1C(C=O)=Cc2cc3c(cc2[C@H]1c1cc(OC)c(OC)c(OC)c1)OCO3 | Leishmania infantum | iRFP fluorescence | mouse splenocytes infected, amastigote, iRFP, ex vivo splenic explant | 48 h | – | EC50 | 4300 ± 100 nM
CCN(CC)C(=O)Oc1ccccc1C=C1Cc2cc(OC)c(OC)cc2C1=O | Cocaine esterase (CES2, Homo sapiens, UniProt O00748) | inhibitor | – | 33 min preincubation, with: fluorescein diacetate | – | IC50 | 3.2 ± 0.38 nM
CN1CCN(Cc2ccc(NC(=O)c3cncc(C#Cc4c(N)ncc5ccc(F)cc45)c3)cc2C(F)(F)F)CC1 | Kinesin-1 heavy chain/ Tyrosine-protein kinase receptor RET (RET/KIF5B, Homo sapiens, UniProt P07949+P33176, G810A) | cell viability, inhibitor, CellTiter-Glo | Ba/F3 KIF5B-RET G810A | – | – | IC50 | 2.85 ± 0.1 nM
O=C(OC(C(F)(F)F)C(F)(F)F)N1CCc2c(cccc2-c2ccccc2)C1 | ABHD6 (Homo sapiens, UniProt Q9BV23) | inhibitor, fluorescence | – | – | – | IC50 | 49 ± 2.6 nM
O=C(Nc1ccc(-c2nc3ccccc3[nH]2)cc1)C1CCC1 | Tyrosine-protein kinase SYK, with FCER1G (SYK, Homo sapiens, UniProt P43405) | protein binding, inhibitor, TR-FRET | – | – | – | IC50 | > 100000 nM
CN1CC[C@H](c2c(O)cc(O)c3c(=O)cc(-c4ccccc4F)oc23)[C@H](O)C1 | MAPK1 (Homo sapiens, UniProt P28482) | kinase activity, inhibitor | – | with: ATP at Km | – | IC50 | > 10000 nM
Cc1ccc(S(=O)(=O)Oc2ccc(/C=C/c3c[nH]c4ccc(C#N)cc34)cc2)cc1 | Amyloid-beta precursor protein, amyloid-beta peptide (APP, Homo sapiens, UniProt P05067) | Aβ42 oligomerisation, ELISA | – | – | – | IC50 | 6500 nM

Some of these lines once more:
SMILES | tested on | assay | system | conditions | how to read | quantity | value
CN1CCN(Cc2ccc(NC(=O)c3cncc(C#Cc4c(N)ncc5ccc(F)cc45)c3)cc2C(F)(F)F)CC1 | Kinesin-1 heavy chain/ Tyrosine-protein kinase receptor RET (RET/KIF5B, Homo sapiens, UniProt P07949+P33176, G810A) | cell viability, inhibitor, CellTiter-Glo | Ba/F3 KIF5B-RET G810A | – | – | IC50 | 2.85 ± 0.1 nM
COc1ccc2nc3ccc(OC)cc3c(CCCCN)c2c1 | DYRK2 (Homo sapiens, UniProt Q92630) | inhibitor | – | inactive at 20 µM, with: Woodtide peptide substrate | – | IC50 | 240 nM
